Measured values from different studies.
“And” joins repeats or separate records; there may be more than shown. ± gives the spread as reported.
HCRTR2 del254-292/I293E/K294R/L160H/M161K/Q254E: Orexin receptor type 2 (HCRTR2, Homo sapiens, UniProt O43614, del254-292/I293E/K294R/L160H/M161K/Q254E)
Chain of UniProt O43614 (whole entry, unmodified, looked up): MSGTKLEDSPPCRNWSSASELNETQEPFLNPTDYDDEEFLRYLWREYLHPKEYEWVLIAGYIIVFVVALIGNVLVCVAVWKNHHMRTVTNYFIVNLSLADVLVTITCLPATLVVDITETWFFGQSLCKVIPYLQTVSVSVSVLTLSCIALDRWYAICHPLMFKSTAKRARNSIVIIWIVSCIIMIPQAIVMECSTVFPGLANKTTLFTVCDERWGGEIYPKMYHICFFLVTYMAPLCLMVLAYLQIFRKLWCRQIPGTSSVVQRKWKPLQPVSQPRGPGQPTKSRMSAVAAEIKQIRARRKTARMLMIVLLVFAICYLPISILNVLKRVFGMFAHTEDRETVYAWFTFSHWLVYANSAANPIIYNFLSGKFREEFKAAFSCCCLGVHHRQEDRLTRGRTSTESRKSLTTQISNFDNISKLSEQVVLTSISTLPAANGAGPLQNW
B1: CRKL; sequence looked up; chain MSSARFDSSDRSAWYMGPVSRQEAQTRLQGQRHGMFLVRDSSTCPGDYVLSVSENSRVSHYIINSLPNRRFKIGDQEFDHLPALLEFYKIHYLDTTTLIEPAPRYPSPPMGSVSAPNLPTAEDNLEYVRTLYDFPGNDAEDLPFKKGEILVIIEKPEEQWWSARNKDGRVGMIPVPYVEKLVRSSPHGKHGNRNSNSYGIPEPAHAYAQPQTTTPLPAVSGSPGAAITPLPSTQNGPVFAKAIQKRVPCAYDKTALALEVGDIVKVTRMNINGQWEGEVNGRKGLFPFTHVKIFDPQNPDENE
B2: caprin-1; sequence looked up; chain PSATSHSGSGSKSSGPPPPSGSSGSEAAAGAGAAAPASQHPATGTGAVQTEAMKQILGVIDKKLRNLEKKKGKLDDYQERMNKGERLNQDQLDAVSKYQEVTNNLEFAKELQRSFMALSQDIQKTIKKTARREQLMREEAEQKRLKTVLELQYVLDKLGDDEVRTDLKQGLNGVPILSEEELSLLDEFYKLVDPERDMSLRLNEQYEHASIHLWDLLEGKEKPVCGTTYKVLKEIVERVFQSNYFDSTHNHQNGLCEEEEAASAPAVEDQVPEAEPEPAEEYTEQSEVESTEYVNRQFMAETQFTSGEKEQVDEWTVETVEVVNSLQQQPQAASPSVPEPHSLTPVAQADPLVRRQRVQDLMAQMQGPYNFIQDSMLDFENQTLDPAIVSAQPMNPTQNMDMPQLVCPPVHSESRLAQPNQVPVQPEATQVPLVSSTSEGYTASQPLYQPSHATEQRPQKEPIDQIQATISLNTDQTTASSSLPAASQPQVFQAGTSKPLHSSGINVNAAPFQSMQTVFNMNAPVPPVNEPETLKQQNQYQASYNQSFSSQPHQVEQTELQQEQLQTVVGTYHGSPDQSHQVTGNHQQPPQQNTGFPRSNQPYYNSRGVSRGGSRGARGLMNGYRGPANGFRGGYDGYRPSFSNTPNSGYTQSQFSAPRDYSGYQRDGYQQNFKRGSGQSGPRGAPRGRGGPPRPNRGMPQMNTQQVN
B3: APOBEC3C; sequence looked up; chain MNPQIRNPMKAMYPGTFYFQFKNLWEANDRNETWLCFTVEGIKRRSVVSWKTGVFRNQVDSETHCHAERCFLSWFCDDILSPNTKYQVTWYTSWSPCPDCAGEVAEFLARHSNVNLTIFTARLYYFQYPCYQEGLRSLSQEGVAVEIMDYEDFKYCWENFVYNDNEPFKPWKGLKTNFRLLKRRLRESLQ
B4: ARF4; sequence looked up; chain GLTISSLFSRLFGKKQMRILMVGLDAAGKTTILYKLKLGEIVTTIPTIGFNVETVEYKNICFTVWDVGGQDRIRPLWKHYFQNTQGLIFVVDSNDRERIQEVADELQKMLLVDELRDAVLLLFANKQDLPNAMAISEMTDKLGLQSLRNRTWYVQATCATQGTGLYEGLDWLSNELSKR
Chain of UniProt P09616 (whole entry, looked up): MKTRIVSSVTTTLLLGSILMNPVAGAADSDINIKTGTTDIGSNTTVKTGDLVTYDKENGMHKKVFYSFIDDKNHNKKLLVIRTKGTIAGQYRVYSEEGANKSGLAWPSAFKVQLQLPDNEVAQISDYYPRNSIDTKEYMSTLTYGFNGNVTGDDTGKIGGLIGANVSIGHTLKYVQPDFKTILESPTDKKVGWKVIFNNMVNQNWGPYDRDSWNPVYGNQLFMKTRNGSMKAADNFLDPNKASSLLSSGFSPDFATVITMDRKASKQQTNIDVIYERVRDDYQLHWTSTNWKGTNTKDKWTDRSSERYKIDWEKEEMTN

DPDPE
retention time (RP-HPLC; HALO Peptide ES-C18 column; 25 µM, acetic acid/acetonitrile, 10 min gradient): 5.33 min

Neurotensin
ΔF/F0 (HCRTR2 del254-292/I293E/K294R/L160H/M161K/Q254E; sensor fluorescence, fluorescence imaging; HEK293T; concentration not given, unit not given; reference: baseline): -0.134 and 0.956 and 2.26 and 1.51 and -1.96

GWTLNSAGYLLGPHAVDNHRSFNDKHGFT-NH2 (C-amide)
mRNA level (RT-qPCR, refers to: Il1b; peptide, chicken, DSS-induced colitis, ileum; ip, 50 µM, unit not given; reference: Actb): 0.026 and 0.0368 and 0.111 and 0.037 and 0.0685 and 0.011 and 0.117

CDKN2A
log2 fold change (peptide binding, SILAC pull-down; concentration not given; reference: non-acetylated over acetylated NIT1 peptide): 2.3

RNA 1 AACAAAACAAAAUAGCACCGUAAAGC / RNA 2 GCUUUACGGUGCUA (dsRNA; 14 bp duplex, 5' 12 nt overhang)
Kd (DEAD-box ATP-dependent RNA helicase RhpA 1-379 (Pseudomonas aeruginosa, UniProt Q9HX66); fluorescence polarization; double-stranded RNA; added: AMP-PNP 1 mM): 0.144 µM

hexaarginine
koff (PorA peptide pore; peptide binding, planar bilayer single-channel recording; 0.5 µM, pH 7.4, +5 mV, trans side, 150 mM KCl): 1090 ± 100 s⁻¹

neuropeptide FF
ΔF/F0 (HCRTR2 del254-292/I293E/K294R/L160H/M161K/Q254E; sensor fluorescence, fluorescence imaging; HEK293T; concentration not given, unit not given; reference: baseline): -1.1 and -2.88 and -3.06 and 2.32 and -2.12

B1 (CRKL)
log2 fold change (peptide binding, SILAC pull-down; concentration not given; reference: non-acetylated over acetylated NIT1 peptide): -0.258

Polymyxin B
survival (mouse; intraperitoneal, 20 mg/kg single dose, day 4): 100%

aspterric acid
root length (Arabidopsis thaliana Col-0 seeds; 100 µg/mL, seed germination): 0.01 cm

QLYNKPLCDV
specific lysis (Ca-Ski (HLA-A2+ HPV+); 111In release; peptide; concentration not given, 16 h, E:T 25:1 IVS 5, added: peptide-generated T-cell line): 49.1%

Polymyxin B
MIC (Escherichia coli; broth microdilution, MH medium; carbapenem-resistant NCCP 16284; 16 h, 37 °C): 4 µM

HVLVMSATRR
monocytes (peptide, C57BL/6J mice, male, blood; subcutaneous osmotic pump, 3 mg/kg/day peptide basis, 8 weeks): 7% and 2% and 1% and 5%

TNPYPTGPG
IC50 (Mamu-B*08301 MHC class I; peptide binding; peptide, Chinese rhesus macaque): > 20 µM

Tunicamycin
protein level (HEK293; western blot, refers to: total eIF2α; 10 µg/mL, 6 h, unit not given; reference: mock): 0.921 and 1.26 and 1.19

B2 (caprin-1)
log2 fold change (peptide binding, SILAC pull-down; concentration not given; reference: non-acetylated over acetylated NIT1 peptide): 0.675

oseltamivir carboxylate
EC50 (Influenza A virus H1N1; cytopathic effect, visual CPE score; MDCK): 1.5 µM

heparin sodium
subjects with adverse event (refers to: Hypokalemia; human healthy Chinese adults; intravenous infusion, 8 IU/kg/h, 5 days): 0%

DnaJ homolog DNAJA4
log2 fold change (peptide binding, SILAC pull-down; concentration not given; reference: non-acetylated over acetylated NIT1 peptide): 0.387

cucurbitacin B
IC50 (MP41 (BAP1-wild-type uveal melanoma); cell viability, CellTiter-Glo; 72 h): 0.0484 µM

AVHVASGFI
IC50 (Mamu-A1*02601 MHC class I; peptide binding; peptide, Chinese rhesus macaque): > 20 µM

RTLEDLLMGT
specific lysis (HN-4 (HLA-A2+ HPV+); 111In release; peptide; concentration not given, 16 h, E:T 25:1 IVS 5, added: peptide-generated T-cell line): 25.8%

(−)-antroquinonol A
IC50 (A549; cytotoxicity, MTS): 13.7 µM and 15.3 µM

capreomycin sulfate
Tlag (guinea pig, serum; insufflation, dose not given, dry powder combination single dose): 0 min

RKAKIIKDY
IC50 (Mamu-B*08301 MHC class I; peptide binding; peptide, Chinese rhesus macaque): > 20 µM

pertussis toxin
distance travelled (open field test; humanized mice, subarachnoid haemorrhage; dose not given): 20 m and 30 m and 18 m and 23 m and 22 m

colistin
CFU relative to caspofungin alone (Aspergillus fumigatus; conidia; 2.5 µM, added: caspofungin 0.2 µg/mL; reference: caspofungin alone): 4.22 and 3.69

glucagon
plasma concentration (ELISA; human, non-diabetic, femoral artery plasma; intravenous infusion, 0.12 ng/kg/min, 160 to 180 min): 0.0718 ± 0.0033 ng/mL

brain natriuretic peptide
limit of detection (hly (Staphylococcus aureus, UniProt P09616); nanopore sensing; asymmetric electrolyte, ionic strengths): 0.77 pM

BIRC6
log2 fold change (peptide binding, SILAC pull-down; concentration not given; reference: non-acetylated over acetylated NIT1 peptide): 8.14

PKYVKQNTLKLAT
antigen-specific CD4 T cells (stimulated healthy donor PBMCs; single-epitope tetramer staining, refers to: DRB1*01:01 tetramer; peptide; concentration not given; reference: CD4 T cells): 2.1%

B3 (APOBEC3C)
log2 fold change (peptide binding, SILAC pull-down; concentration not given; reference: non-acetylated over acetylated NIT1 peptide): -0.282

GWTLNSAGYLLGPRRIDHLLMIKEMPIARGREEAPGA / YAVDNHRSFNDKHGFT-NH2 (C-amide)
colon length (Arrb2 intestinal cKO mice, DSS colitis; ip, 3 µM, 2% DSS): 5.8 cm and 5.2 cm and 5.1 cm and 6 cm and 5.4 cm

nonaarginine
kon (PorA peptide pore; peptide binding, planar bilayer single-channel recording; 0.5 µM, pH 7.4, +10 mV, trans side, 150 mM KCl): 2.8e+06 ± 300000 M⁻¹ s⁻¹

insulin human
fold change (refers to: ADCY8 mRNA; EcoHIV-infected mouse, brain; i.p., dose not given; reference: PBS): 1.14

B4 (ARF4)
log2 fold change (peptide binding, SILAC pull-down; concentration not given; reference: non-acetylated over acetylated NIT1 peptide): 3.01

amyloid β-peptide (1–28)
remaining substrate (substrate, LC-MS; phosphate buffer; 10 µM, 12 h, pH 7.4, 25 °C, added: MINP(β1–14) 1 equiv): 8.7 ± 1.2%

Met-enkephalin-Arg-Phe
maximum possible effect (antinociception, hot plate; male ICR-CD1 mice; intracerebroventricular, 50 µg/animal, 45 min): -1.64% and 5.93% and 4.47% and 13.8% and 1.87% and 8.83% and -5.35% and 10.2%

KISEYRHYC
IFN-γ release (HPV16 E6-specific T-cell line; ELISA; peptide, supernatant; concentration not given, 24 h, added: peptide-pulsed autologous B cells): 455 pg/mL

dynein light chain LC8-type 1
log2 fold change (peptide binding, SILAC pull-down; concentration not given; reference: non-acetylated over acetylated NIT1 peptide): -0.36
